Assay results from different studies.
Compare with care: the assays were run in different laboratories. Values joined by “and” are separate records of one study, mostly repeats; a detail may differ. ± marks the error that the study gave.
GBA2: Beta-glucosidase (GBA2, Homo sapiens, UniProt Q9HCG7)
Sequence of UniProt Q9HCG7 (whole entry, looked up): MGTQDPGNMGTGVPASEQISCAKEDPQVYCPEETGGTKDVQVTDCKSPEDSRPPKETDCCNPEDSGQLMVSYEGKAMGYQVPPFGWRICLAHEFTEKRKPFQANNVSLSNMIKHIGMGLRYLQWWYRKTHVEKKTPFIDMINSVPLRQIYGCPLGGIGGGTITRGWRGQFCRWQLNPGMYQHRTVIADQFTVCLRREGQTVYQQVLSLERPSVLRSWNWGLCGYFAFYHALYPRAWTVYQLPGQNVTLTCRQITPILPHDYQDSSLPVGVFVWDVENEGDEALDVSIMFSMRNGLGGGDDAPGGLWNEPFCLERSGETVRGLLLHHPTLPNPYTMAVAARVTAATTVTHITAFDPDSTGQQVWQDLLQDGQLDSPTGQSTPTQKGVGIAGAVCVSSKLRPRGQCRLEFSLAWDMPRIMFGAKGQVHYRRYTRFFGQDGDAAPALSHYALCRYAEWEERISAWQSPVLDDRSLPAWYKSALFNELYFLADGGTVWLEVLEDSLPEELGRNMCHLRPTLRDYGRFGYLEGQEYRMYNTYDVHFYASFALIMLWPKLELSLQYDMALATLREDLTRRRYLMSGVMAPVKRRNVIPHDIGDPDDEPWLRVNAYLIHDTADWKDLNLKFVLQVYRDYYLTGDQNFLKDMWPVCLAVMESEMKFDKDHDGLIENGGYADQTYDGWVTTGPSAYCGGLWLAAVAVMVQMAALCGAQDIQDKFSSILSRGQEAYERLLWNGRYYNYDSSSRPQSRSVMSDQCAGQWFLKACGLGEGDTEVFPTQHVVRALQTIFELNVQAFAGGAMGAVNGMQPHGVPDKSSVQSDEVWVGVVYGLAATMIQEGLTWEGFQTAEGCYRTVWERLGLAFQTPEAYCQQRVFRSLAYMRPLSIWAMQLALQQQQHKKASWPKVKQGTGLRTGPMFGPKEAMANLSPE

Cc1ncsc1-c1ccc(C(C)NC(=O)C2CC(O)CN2C(=O)C(NC(=O)CCCCCCCCCCN2CCCC(Nc3ncc(Cl)c(Nc4ccccc4S(=O)(=O)C(C)C)n3)C2)C(C)(C)C)cc1 (stereo not drawn)
log2 fold change (22Rv1; RNA-seq, item: SMIM10L2B mRNA; concentration not given; baseline: DMSO): -2.29

CC(C)OCCOCc1ccc(OCC(O)CN(N=O)C(C)C)cc1 (stereo not drawn)
revertant fold increase (Salmonella typhimurium; Ames test; TA100; 158 µg/plate, 30 % rat S9; baseline: solvent control): 1 fold

COC1CN([C@H]2CC[C@H]([C@@]3(C)Oc4c(Cl)cc(C(=O)NCc5c(SC)cc(C)[nH]c5=O)c(C)c4O3)CC2)C1
log2 fold change (RNA-seq, item: DNAJB5; human, whole blood; dose not given, 24 h; baseline: pretreatment baseline): 1.32

C=CC(=O)Nc1cccc(Cn2ncc3cnc(Nc4cnn(CCOC)c4)nc32)c1
percent of control (VPS34 human; binding, KINOMEscan; 100 nM; lower = stronger binding): 21%

C=C(NC(=O)c1csc(-c2nc3c(cc2O)-c2nc(cs2)C(=O)NC(C(C)O)C(=O)NC(=C(C)OC)c2nc(cs2)C(=O)NC2c4nc(cs4)C(=O)NC(COC(=O)c4c5c6c(cccc6n4O)COC(=O)C(OC4CC(C)(O)C(N(C)C)C(C)O4)C2OC5)c2nc-3cs2)n1)C(N)=O (stereo not drawn)
Cmax (Sprague-Dawley rat, male, plasma; intravenous infusion, 6 mg/kg, multiple doses, day 1): 3390 ng/mL

OC[C@H]1[C@@H](O)[C@H](O)[C@@H](O)CN1CCCCCOCc1ccc(-c2ccccc2)c(C(F)(F)F)c1
selectivity ratio (GBA2; inhibitor, 4MU-β-D-glucopyranoside; HEK293T homogenates overexpressing GBA2; baseline: GBA1 IC50 over GBA2 IC50): 60000

O=C(N/N=C/c1cc[n+](CC2CC2)c2ccccc12)C(=O)N/N=C/c1cc[n+](CC2CC2)c2ccccc12
ΔTm (myc22 MYC G4-DNA parallel; FRET melting; 1 µM, K1 buffer, DNA 0.2 µM): 3.2 ± 0.5 °C

Nc1ncc(-c2cc(-c3cnn(CC(F)(F)F)c3)ncc2F)nc1C(=O)NC1CNCC(F)C1 (stereo not drawn)
remaining binding (ERK1; KINOMEscan competition binding; 1 µM; baseline: DMSO control): 100%

COc1cc(O)ccc1CCC(c1ccc(O)cc1)c1cc2c(c(C)c1O)OC(c1ccc(O)cc1)CC2 (mixture of isomers)
EPA level (human blood; 0.3 µM, added: A23187): 76700 ± 22000 pg/mL

CC(C)C[C@H](NC(=O)[C@H](Cc1ccc(O)cc1)NC(=O)[C@@H](CCCNC(=N)N)NC(=O)[C@@H](CO)NC(=O)[C@H](Cc1ccccc1)NC(=O)[C@H](CC1CCCCC1)NC(=O)[C@H](CC(=O)O)NC(=O)CN1CCN(CC(=O)O)CCN(CC(=O)O)CCN(CC(=O)O)CC1)C(=O)N[C@@H](Cc1c[nH]c2ccccc12)C(=O)N[C@@H](CO)C(=O)O [copper-64 labelled]
activity concentration (human, urinary bladder; concentration not given, 3 h): 28600 Bq/mL and 92500 Bq/mL and 40300 Bq/mL and 87000 Bq/mL and 67300 Bq/mL and 56400 Bq/mL

OC[C@@H]1[C@@H](O)[C@H](O)[C@@H](O)CN1CCCCCOCc1ccc(-c2ccccc2)c(F)c1
selectivity ratio (GBA2; inhibitor, 4MU-β-D-glucopyranoside; HEK293T homogenates overexpressing GBA2; baseline: GBA1 IC50 over GBA2 IC50): 2500

CC[n+]1cccc2cc(/C=N/NC(=O)C(=O)N/N=C/c3ccc4c(ccc[n+]4CC)c3)ccc21
ΔTm (myc22 MYC G4-DNA parallel; FRET melting; 1 µM, K1 buffer, DNA 0.2 µM, added: ds26 10 µM): 4.6 ± 0.4 °C

CNS(=O)(=O)Nc1nccc(Cc2c(C)c3ccc(Oc4ncccc4F)cc3oc2=O)c1F
IC50 (NCI-H2106; cell viability, CellTiter-Glo; 7 days): > 1000 nM

O=C(N/N=C/c1cc[n+](CC2CC2)c2ccccc12)c1cc(C(=O)N/N=C/c2cc[n+](CC3CC3)c3ccccc23)ncn1
ΔTm (myc22 MYC G4-DNA parallel; FRET melting; 1 µM, K1 buffer, DNA 0.2 µM): 6.1 °C

CN1CCCNC(=O)c2cccc(c2)C(=O)NCCCN(C)CCCNc2cccc3c2C(=O)c2cccc(c2C3=O)NCCC1
log2 fold change (SAS; RNA-Seq, item: KLF10 mRNA; 5 µM, 6 h; baseline: untreated cells): 2.31

Some of these lines once more:
CC[n+]1cccc2cc(/C=N/NC(=O)C(=O)N/N=C/c3ccc4c(ccc[n+]4CC)c3)ccc21
ΔTm (myc22 MYC G4-DNA parallel; FRET melting; 1 µM, K1 buffer, DNA 0.2 µM, added: ds26 10 µM): 4.6 ± 0.4 °C

CNS(=O)(=O)Nc1nccc(Cc2c(C)c3ccc(Oc4ncccc4F)cc3oc2=O)c1F
IC50 (NCI-H2106; cell viability, CellTiter-Glo; 7 days): > 1000 nM
